Measurements collected from several papers.
Each numbered part is a random draw from the data of one study; scales do not carry over between parts. Substitutions count along the parent as printed.

Series 1 — target: CCNF, cyclin fold, Cln2 fusion (human); technique: yeast growth competition, sequencing; matrix: yeast; notes: strong parent motif; baseline: not given; direction: higher = stronger binding
Starting sequence: CDC25A docking peptide (human); PPHRRRLLFACSP
Change	normalised enrichment score
PCHRRRLLFACSP [P2C]	6.81
PPHRRRLLFANSP [C11N]	8.05
PPLRRRLLFACSP [H3L]	7.73
PLHRRRLLFACSP [P2L]	6.13
PPHRRRLLFACDP [S12D]	7.63
PPHRRRNLFACSP [L7N]	1.8
PPHRRRLLFACSE [P13E]	8.29
PPHRRWLLFACSP [R6W]	3.27
PPHRRRKLFACSP [L7K]	1.94
PPHRERLLFACSP [R5E]	0.409
PPHRRRLSFACSP [L8S]	5.41
PPHRRRLLFAFSP [C11F]	8.34
PPHRRRLWFACSP [L8W]	6.41
PPHRRRLFFACSP [L8F]	7.29
VPHRRRLLFACSP [P1V]	6.92
PPHRRRTLFACSP [L7T]	1.78

Series 2 — technique: RNA Bind-n-Seq; form: RNA; matrix: in vitro; concentration: 365 nM; baseline: no-protein control; direction: higher = stronger binding
Target: RNA binding protein fox-1 homolog 2, RRM domain, GST-SBP tag (RBFOX2, Homo sapiens, UniProt O43251-10, residues 100-194)
Notes: natural RNA segment, single round, ends assumed
All sequences stand within: GGGAGUUCUACAGUCCGACGAUC … UGGAAUUCUCGGGUGCCAA
Target sequence (chain): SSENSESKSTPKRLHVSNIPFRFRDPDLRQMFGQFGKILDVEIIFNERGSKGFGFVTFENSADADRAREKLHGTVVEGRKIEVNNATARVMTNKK
Strand	RBNS enrichment (R)
ACAACAACAAAAGUGUCAUAUUUUAGAAGGCCUAGAGGUGACUCAUUUUAGAUAUAUAUACUUUGUUUUGGAAUAUUUGGUUGUAUAAAAUGUAAUGAGUGAGCUAAUUG	0.829
GAGUAAGCUCUGUGCGAGAGAUCUGUGAAUAACCAGAUAACCCCAGCUGCCGUUAACCUUUUCACCAGGUGCCACAGUAAUAUUUCUGGUUUUUAGCCCUUUCUCUGCAC	0.301
AGGGUGUUUUUCCUGAGUAGGAGUUAAGUUUGGAACUGGUGGUCUUGAAUGUUAAACAUGGAGUGUGACUGGGACAGCCAUGAGUCAGAAUAUAAAUGAAUGCUUAAACA	2.97
CCGAGUUCUUAAAUCCAGGUAGGGAACUCACUCUUCUUUCUUCUCUGGACCUAAUUGGGCAUUGGGCUUUAGUGAGACCACAGACCAGGCCCGUCUCUCCUGUAGGCUUU	0.414
UCUCUCAGGAGCACGUGUGAACCGUCUUCGUGCUUCAGCGAAAGCGAGUUUGAGGCAGUCUUGCAAGAUUCUCAGACUAAUUUCCAAAAGGAAACCGGAUGCCAACUUCC	0.306
UGAUGUAUCAUCAAUUUUAUUACUUUCUGUCUAUGUUUGCAAAAGUAGUAGAGUUUAAUUCACCAUAUGAACCUCAUUCUGAUGUUUUUGAUUUGAUAGUCUUGAUCUAA	0.381
CUGAGUCCUGACAAUUGUAUCCCGGUUCCCCAGGGGACAGUCUGGGUCCCUCUCUGGUCUGACGCUCCCUAUAGGUUCCACCGCACGACAGCCUGUCCAUCAAAACUUGU	2.86
CUUGCUAUAACCGGAGAGCUUCAAAACUGACGUAUGAUGCAGCAGGGACUUCAUCACUGAGUACUGUGACAGUAUGUGUCAUCUCUGGGCCAAAGGACAAGCCAUUGAUC	0.322
CUUGGGUUGAGCCUGUGACUUGGUUUCUCUUUGUCCUUUUGGAAAAAUGACAAGCAUUGCAUCCCAGUCUUGUGUUCCGAAGUCAGUCGGAGUACUUGAAGAAGGCCCAC	0.464
AUGUAUUUCUUGUCUACUAAGGAUUGCCAAGCUUUGUUUUGAAUUUCUGUAUUGGUCUCUAGGUGUAGCCUUUACUUCCUUUACUGUUGGCGUGUUAUGCUCCCAGUUCC	1.03
CUCUAAAAGUGUGUCAUUUAGCGAAAACUUGAGAUUACAUUUCUUCCUGGGAGGAGUUAGAAGUAAUGGUUUAGUUCAGGCAGCUACACGUGCCUAUUUAUCCCUCGUUC	0.321
AGAGACCCACUGUAAUUGAUGCAUUGUGGCCCCUGAUCUUCCCUGUCUCACACUUCUUUUCUCCCAUCCCGGUUGCAAUCUCACUCAGACAUCACAGUACCACCCCAGGG	0.533

Series 3 — technique: protein-binding microarray; form: double-stranded DNA, one strand shown; matrix: in vitro; concentration: 250 nM; notes: 60-bp whole probe; with: salmon DNA 0.4 mg/ml; baseline: random background probes; direction: higher = stronger binding; all sequences stand within: GCCTAGCAC … GTCTTGATTCGCTTGACGCTGCTG
Target: Interferon regulatory factor 5, full length, phosphomimetic (IRF5, Homo sapiens, UniProt Q13568-2, residues 1-514, K96S/S451D/S453D/S456D/S462D)
Strand	log fluorescence [z-score]
TTAGGTATCGGTATGGGTTAGTGCTAG	7.25
TTAGCTTCCCTTTTCCTTTAGTGCTAG	0.717
TTAGCTATCAGTATCGATTAGTGCTAG	8.22
TTACGACTGGACACTGGGTTAGTGCTA	0.287
GACGGTTTCGCTTTCGGGACGTGCTAG	9.07
GACGGTTTCGATTCCGGGACGTGCTAG	8.4
TCATATTTGCAACATCCCACTGTGCTA	0.301
GACGGACTGCTTCTCCTGTCGTGCTAG	-0.158
GCACTTTGGGAGGCCGAGGCGTGCTAG	-0.403
TCATATACCCATGTAGAACTGTGCTAG	0.193
TTAGGTATCGACTTTCGGGTAGTGCTA	8.4
TTAGGTATCGACCATCGGTTAGTGCTA	3.02
GACGATCTCGGACTGGGGACGTGCTAG	-0.48
TTAGATATCGGGTCTGGATTAGTGCTA	1.58
TTAGGTCTCGGTTCCGGTTAGTGCTAG	1.51
GACGATTTCGGGACTGGTGACGTGCTA	1.65
TTAGGATTCGACTATCGGTTAGTGCTA	7.08
GACGAGTTCAGTCTCGAGACGTGCTAG	-0.0656
TCATGTTTGAGAAATCAGACTGTGCTA	0.167
GACGGTTTCCTTTTCCTGCCGTGCTAG	1.29
GACGGCATCGGGTATCGGGACGTGCTA	0.26

Series 4 — technique: aptamer microarray, sandwich; form: DNA with 2'F-ANA; matrix: in vitro; concentration: 200 nM; with: Cy3 exosite-II aptamer, 400 nM; direction: higher = stronger binding; strand: GGTTGGTGTGGTTGG
Target: Prothrombin, mature alpha-thrombin (F2, Homo sapiens, UniProt P00734)
Notes: whole 15-mer aptamer, many near background
Modification	mean fluorescence intensity [a.u.]
2'F-ANA at 1 2 3 7 8 9 10 11 12 13 14	120
2'F-ANA at 1 2 4 7 10 12 13 14	44.9
2'F-ANA at 5 6 8 9 11 12 13 14	48.2
2'F-ANA at 1 3 4 5 6 8 12 13 14 15	50.2
2'F-ANA at 1 3 4 6 7 8 9 12 13 14	75.2
2'F-ANA at 1 2 3 4 5 7 8 10 12 14	49.6
2'F-ANA at 3 5 7 8 10 12 15	74.2
2'F-ANA at 1 7 8 10 12 13 14	49.3
2'F-ANA at 1 4 6 7 11 12 13 15	138
2'F-ANA at 1 3 4 5 6 7 8 10 12	53.2
2'F-ANA at 2 5 8 11 12 13 15	111
2'F-ANA at 3 7 13 15	1040
2'F-ANA at 2 3 6 7 8 9 10 11 13	294
2'F-ANA at 4 5 8 9 10 13 14	45.6
2'F-ANA at 1 3 5 7 8 11 12 13 15	93.2
2'F-ANA at 1 3 6 8 12 15	622
2'F-ANA at 3 4 7 12 13 14	461
2'F-ANA at 1 4 5 7 14 15	48.2
2'F-ANA at 1 2 3 7 8 12 15	569
2'F-ANA at 1 2 5 7 8 9 10 11 14 15	48.6

For quick reference, copied from above (series 2):
Strand	RBNS enrichment (R)
UGAUGUAUCAUCAAUUUUAUUACUUUCUGUCUAUGUUUGCAAAAGUAGUAGAGUUUAAUUCACCAUAUGAACCUCAUUCUGAUGUUUUUGAUUUGAUAGUCUUGAUCUAA	0.381
ACAACAACAAAAGUGUCAUAUUUUAGAAGGCCUAGAGGUGACUCAUUUUAGAUAUAUAUACUUUGUUUUGGAAUAUUUGGUUGUAUAAAAUGUAAUGAGUGAGCUAAUUG	0.829
AUGUAUUUCUUGUCUACUAAGGAUUGCCAAGCUUUGUUUUGAAUUUCUGUAUUGGUCUCUAGGUGUAGCCUUUACUUCCUUUACUGUUGGCGUGUUAUGCUCCCAGUUCC	1.03
UCUCUCAGGAGCACGUGUGAACCGUCUUCGUGCUUCAGCGAAAGCGAGUUUGAGGCAGUCUUGCAAGAUUCUCAGACUAAUUUCCAAAAGGAAACCGGAUGCCAACUUCC	0.306
CUCUAAAAGUGUGUCAUUUAGCGAAAACUUGAGAUUACAUUUCUUCCUGGGAGGAGUUAGAAGUAAUGGUUUAGUUCAGGCAGCUACACGUGCCUAUUUAUCCCUCGUUC	0.321
GAGUAAGCUCUGUGCGAGAGAUCUGUGAAUAACCAGAUAACCCCAGCUGCCGUUAACCUUUUCACCAGGUGCCACAGUAAUAUUUCUGGUUUUUAGCCCUUUCUCUGCAC	0.301
CUUGGGUUGAGCCUGUGACUUGGUUUCUCUUUGUCCUUUUGGAAAAAUGACAAGCAUUGCAUCCCAGUCUUGUGUUCCGAAGUCAGUCGGAGUACUUGAAGAAGGCCCAC	0.464
CUGAGUCCUGACAAUUGUAUCCCGGUUCCCCAGGGGACAGUCUGGGUCCCUCUCUGGUCUGACGCUCCCUAUAGGUUCCACCGCACGACAGCCUGUCCAUCAAAACUUGU	2.86
CCGAGUUCUUAAAUCCAGGUAGGGAACUCACUCUUCUUUCUUCUCUGGACCUAAUUGGGCAUUGGGCUUUAGUGAGACCACAGACCAGGCCCGUCUCUCCUGUAGGCUUU	0.414
AGGGUGUUUUUCCUGAGUAGGAGUUAAGUUUGGAACUGGUGGUCUUGAAUGUUAAACAUGGAGUGUGACUGGGACAGCCAUGAGUCAGAAUAUAAAUGAAUGCUUAAACA	2.97
CUUGCUAUAACCGGAGAGCUUCAAAACUGACGUAUGAUGCAGCAGGGACUUCAUCACUGAGUACUGUGACAGUAUGUGUCAUCUCUGGGCCAAAGGACAAGCCAUUGAUC	0.322
